{"data": "Results pooled from the literature", "note": "Each numbered part is a random draw from the data of one study; scales do not carry over between parts. Positions count from the first letter of the parent shown."}
{"data": "Sample 1", "target": "UDP-N-acetylglucosamine--peptide N-acetylglucosaminyltransferase 110 kDa subunit (OGT, Homo sapiens, UniProt O15294)", "effect on": "phage display binding", "method": "phage display panning NGS", "form": "peptide", "baseline": "OGT-panned over input library", "Target sequence (O15294 1-1046)": "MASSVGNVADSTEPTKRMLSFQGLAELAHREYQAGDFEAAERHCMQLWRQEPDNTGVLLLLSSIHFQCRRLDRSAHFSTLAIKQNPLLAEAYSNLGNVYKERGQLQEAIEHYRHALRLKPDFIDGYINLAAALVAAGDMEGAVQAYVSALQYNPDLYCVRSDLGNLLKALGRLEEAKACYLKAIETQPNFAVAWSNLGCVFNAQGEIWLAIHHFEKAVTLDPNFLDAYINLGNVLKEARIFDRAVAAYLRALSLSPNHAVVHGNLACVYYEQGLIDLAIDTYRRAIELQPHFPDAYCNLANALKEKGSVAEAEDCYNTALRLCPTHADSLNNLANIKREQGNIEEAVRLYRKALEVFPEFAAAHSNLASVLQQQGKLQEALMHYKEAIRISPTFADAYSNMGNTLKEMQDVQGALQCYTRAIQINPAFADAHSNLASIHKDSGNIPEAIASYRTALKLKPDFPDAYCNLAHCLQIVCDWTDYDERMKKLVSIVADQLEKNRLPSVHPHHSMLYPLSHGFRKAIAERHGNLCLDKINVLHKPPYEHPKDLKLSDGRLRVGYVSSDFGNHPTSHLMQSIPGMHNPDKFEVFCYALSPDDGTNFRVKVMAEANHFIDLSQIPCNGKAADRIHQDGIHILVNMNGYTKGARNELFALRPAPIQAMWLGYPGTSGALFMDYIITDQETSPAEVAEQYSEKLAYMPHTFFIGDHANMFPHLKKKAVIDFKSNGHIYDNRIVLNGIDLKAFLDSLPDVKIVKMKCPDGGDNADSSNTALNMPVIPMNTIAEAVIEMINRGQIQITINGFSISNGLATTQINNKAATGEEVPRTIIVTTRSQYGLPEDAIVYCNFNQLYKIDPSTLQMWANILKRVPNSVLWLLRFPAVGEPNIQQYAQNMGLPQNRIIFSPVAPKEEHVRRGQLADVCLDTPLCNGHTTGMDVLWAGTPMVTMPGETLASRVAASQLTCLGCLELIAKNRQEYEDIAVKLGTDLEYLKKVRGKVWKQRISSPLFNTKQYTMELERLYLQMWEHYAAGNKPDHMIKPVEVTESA"}
{"Sequence": "WPHTMHAAKHDFHF", "log2 fold enrichment": 2.64}
{"Sequence": "VDYRPAYPIDWAPWK", "log2 fold enrichment": 2.55}
{"Sequence": "VANMHHHVDHTAHGS", "log2 fold enrichment": 3.38}
{"Sequence": "QDLEQHMFMHHHDKH", "log2 fold enrichment": 2.61}
{"Sequence": "DWHTDHWQSDHVHVH", "log2 fold enrichment": 2.23}
{"Sequence": "WSAQPNLYPVYQIIV", "log2 fold enrichment": 3.56}
{"Sequence": "SDDLYAPQYQIFFNA", "log2 fold enrichment": 3.06}
{"Sequence": "MRTEHIYPPVYTITY", "log2 fold enrichment": 2.72}
{"Sequence": "GPNHIHHGHSEPHHI", "log2 fold enrichment": 3.61}
{"Sequence": "HDGLKWGKHFTHHRG", "log2 fold enrichment": 2.04}
{"Sequence": "GDQSYRPIYPIQYYK", "log2 fold enrichment": 3.75}
{"Sequence": "HYRTDHFKPDHHIHT", "log2 fold enrichment": 3.63}
{"Sequence": "ANYLPMYQMPVTVY", "log2 fold enrichment": 1.69}
{"Sequence": "HWTSMAFMHHWEPE", "log2 fold enrichment": 2.66}
{"Sequence": "RVNHHWGFNTHTYTA", "log2 fold enrichment": 2.28}
{"Sequence": "VGYHGTPYHKHGAHI", "log2 fold enrichment": 2.71}
{"Sequence": "YPPVYVIQIPMAQQH", "log2 fold enrichment": 2.58}
{"Sequence": "GMYHHHERTWNQYQH", "log2 fold enrichment": 3.22}
{"Sequence": "QAHRWPFHFKQHSFW", "log2 fold enrichment": 3.55}
{"data": "Sample 2", "target": "CRIPT, C-terminal peptide", "method": "DHFR complementation, deep sequencing", "matrix": "yeast", "setting": "single substitutions, model-inferred values", "baseline": "wild type", "reading": "higher = weaker binding", "starting sequence": "ERBIN, PDZ domain 1 (human); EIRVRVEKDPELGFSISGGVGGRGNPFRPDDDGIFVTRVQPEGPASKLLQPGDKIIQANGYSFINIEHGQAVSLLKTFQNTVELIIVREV; partner TKNYKQTSV"}
{"Change": "Y61V", "binding free energy change [kcal/mol]": 0.0387}
{"Change": "N80Y", "binding free energy change [kcal/mol]": 0.173}
{"Change": "N80K", "binding free energy change [kcal/mol]": 0.0805}
{"Change": "T37Q", "binding free energy change [kcal/mol]": 1.23}
{"Change": "E83Q", "binding free energy change [kcal/mol]": 0.164}
{"Change": "P44M", "binding free energy change [kcal/mol]": 0.725}
{"Change": "N59L", "binding free energy change [kcal/mol]": 0.194}
{"Change": "P44R", "binding free energy change [kcal/mol]": 0.28}
{"data": "Sample 3", "target": "inorganic phosphate, free oxyanion", "method": "microfluidic competitive inhibition", "matrix": "in vitro, cell-free expressed", "concentration": "not given", "setting": "derived from inhibition constants, unchanged parent 615000 nM", "reading": "lower = stronger binding", "starting sequence": "PafA, mature enzyme, eGFP fusion (Elizabethkingia meningoseptica, UniProt Q9KJX5); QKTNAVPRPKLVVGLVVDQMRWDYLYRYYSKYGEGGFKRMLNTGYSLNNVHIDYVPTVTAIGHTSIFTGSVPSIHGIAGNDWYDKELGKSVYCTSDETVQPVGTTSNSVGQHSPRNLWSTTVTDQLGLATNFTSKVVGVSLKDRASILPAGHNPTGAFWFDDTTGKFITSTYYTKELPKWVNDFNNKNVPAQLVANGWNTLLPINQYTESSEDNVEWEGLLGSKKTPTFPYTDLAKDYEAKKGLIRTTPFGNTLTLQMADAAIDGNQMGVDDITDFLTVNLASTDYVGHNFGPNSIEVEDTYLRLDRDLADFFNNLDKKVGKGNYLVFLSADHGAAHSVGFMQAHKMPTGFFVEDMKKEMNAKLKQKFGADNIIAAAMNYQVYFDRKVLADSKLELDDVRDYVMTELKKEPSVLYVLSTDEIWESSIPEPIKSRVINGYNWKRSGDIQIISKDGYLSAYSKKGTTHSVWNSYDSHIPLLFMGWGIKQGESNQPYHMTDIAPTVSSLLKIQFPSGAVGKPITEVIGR"}
{"Change": "G525A", "phosphate dissociation constant [µM]": 563}
{"Change": "V12A", "phosphate dissociation constant [µM]": 616}
{"Change": "T94V", "phosphate dissociation constant [µM]": 364}
{"Change": "G454V", "phosphate dissociation constant [µM]": 426}
{"Change": "S134V", "phosphate dissociation constant [µM]": 526}
{"Change": "S73G", "phosphate dissociation constant [µM]": 400}
{"Change": "Q366G", "phosphate dissociation constant [µM]": 451}
{"Change": "F276G", "phosphate dissociation constant [µM]": 427}
{"Change": "Y472V", "phosphate dissociation constant [µM]": 600}
{"Change": "G14V", "phosphate dissociation constant [µM]": 437}
{"Change": "E212G", "phosphate dissociation constant [µM]": 617}
{"Change": "L506G", "phosphate dissociation constant [µM]": 518}
{"Change": "G525V", "phosphate dissociation constant [µM]": 653}
{"Change": "F328G", "phosphate dissociation constant [µM]": 581}
{"Change": "Y92V", "phosphate dissociation constant [µM]": 4560}
{"Change": "A191G", "phosphate dissociation constant [µM]": 605}
{"Change": "P149G", "phosphate dissociation constant [µM]": 96.6}
{"Change": "R39G", "phosphate dissociation constant [µM]": 576}
{"data": "Sample 4", "target": "Histone acetyltransferase KAT6A, both winged helices, GST fusion (KAT6A, Homo sapiens, UniProt Q92794, residues 1-181)", "method": "protein binding microarray", "form": "double-stranded DNA, one strand shown", "matrix": "in vitro", "concentration": "not given", "setting": "8-mer, flanks averaged, mean of 2 arrays, mostly near background", "baseline": "not given", "reading": "higher = stronger binding", "Construct (chain)": "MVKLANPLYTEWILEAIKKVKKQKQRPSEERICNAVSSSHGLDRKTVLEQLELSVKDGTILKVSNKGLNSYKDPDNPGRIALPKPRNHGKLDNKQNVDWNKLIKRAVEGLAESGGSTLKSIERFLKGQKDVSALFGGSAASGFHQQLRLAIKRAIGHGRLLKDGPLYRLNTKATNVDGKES"}
{"Strand": "ATTGGTCG", "E-score": -0.0785}
{"Strand": "CAACTCCC", "E-score": -0.177}
{"Strand": "CTCCTAGC", "E-score": -0.0972}
{"Strand": "ACTCCATC", "E-score": -0.0795}
{"Strand": "GCGGAGCC", "E-score": 0.168}
{"Strand": "AAAGCCGC", "E-score": 0.298}
{"Strand": "AGCCTAAT", "E-score": -0.342}
{"Strand": "ACCGCCAT", "E-score": 0.0641}
{"note": "Repeated from above (sample 1):"}
{"Sequence": "WSAQPNLYPVYQIIV", "log2 fold enrichment": 3.56}
{"Sequence": "SDDLYAPQYQIFFNA", "log2 fold enrichment": 3.06}
{"Sequence": "MRTEHIYPPVYTITY", "log2 fold enrichment": 2.72}
{"Sequence": "GPNHIHHGHSEPHHI", "log2 fold enrichment": 3.61}
